Published values collected from several papers.
Numbered parts are unrelated; each lists some results of a single study.
Chain of UniProt Q9C0B0 (30-357, looked up): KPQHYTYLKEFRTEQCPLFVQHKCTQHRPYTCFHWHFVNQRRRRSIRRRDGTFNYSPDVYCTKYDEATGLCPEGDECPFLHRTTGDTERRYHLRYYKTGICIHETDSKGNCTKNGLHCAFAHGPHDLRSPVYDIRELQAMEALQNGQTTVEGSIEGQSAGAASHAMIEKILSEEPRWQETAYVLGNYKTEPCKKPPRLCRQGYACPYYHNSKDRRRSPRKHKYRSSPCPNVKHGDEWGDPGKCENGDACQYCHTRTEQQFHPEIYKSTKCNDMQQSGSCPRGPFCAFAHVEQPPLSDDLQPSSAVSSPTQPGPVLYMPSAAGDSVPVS

Sample 1
Target: Histone acetyltransferase KAT6A, winged helix 2, GST fusion (KAT6A, Homo sapiens, UniProt Q92794, residues 85-181)
Technique: protein binding microarray
Form: double-stranded DNA, one strand shown
Medium: in vitro
Concentration: not given
Setting: 8-mer, flanks averaged, mean of 2 arrays, mostly near background
Reference: not given
Direction: higher = stronger binding
Construct (chain): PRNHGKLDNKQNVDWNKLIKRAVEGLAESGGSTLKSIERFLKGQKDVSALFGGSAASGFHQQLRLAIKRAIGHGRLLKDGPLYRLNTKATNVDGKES
Sequence	E-score
GTCCATGA	-0.126
CAGCGGTC	-0.0881
AAGCAGTC	-0.146
AACCCCAC	-0.0933
CTTAACAC	0.0383
CAGTCTAG	-0.0147
ATTAAGCA	0.0204
GAGAGGGC	0.126
ATCTGTAA	-0.244
AGGGTACC	-0.161
CGCCGTGC	0.194
ATACAAGC	0.0392
CCTCGACC	-0.0661
GCGTTAAA	-0.0277
GCACGGCC	0.116
AAGAGAGT	-0.171
ACGGAAAG	-0.0691
GGCGTTGA	-0.0781
CAGTTCCA	-0.0111
ATTAGGAC	-0.246
GGCTCCCA	0.00763
AACCATCT	-0.104
GGAGAGCA	-0.041
AAGCACGT	-0.0522

Sample 2
Target: Interferon regulatory factor 5, full length, phosphomimetic (IRF5, Homo sapiens, UniProt Q13568-2, residues 1-514, K96S/S451D/S453D/S456D/S462D)
Technique: protein-binding microarray
Form: double-stranded DNA, one strand shown
Medium: in vitro
Concentration: 250 nM
Setting: 60-bp whole probe
With: salmon DNA 0.4 mg/ml
Reference: random background probes
Direction: higher = stronger binding
All sequences stand within: GCCTAGCAC … GTCTTGATTCGCTTGACGCTGCTG
Sequence	log fluorescence
CTAGATCTCAGACTGGATTAGTGCTAG	-0.231 z-score
TTATAACTGAGTTTCGATTAGTGCTAG	9.71 z-score
TTAGATTTCAGTCCCGATTAGTGCTAG	1.5 z-score
AGCTGTTTCTGTGTCACAGAGTGCTAG	3.3 z-score
TCACCTGAATGAAAACATACTGTGCTA	0.5 z-score
ACAGCAAGCAGGGCCAGCCCGTGCTAG	-0.785 z-score
TTAGATATCAGTCTCCATTAGTGCTAG	1.14 z-score
GACCAACTGGGGTTTCGAGACGTGCTA	1.04 z-score
ATTCTCTTCTTGCATCTGGGTGTGCTA	0.772 z-score
GACGATCTCAAACTGGAGACGTGCTAG	-0.262 z-score
TCAACCCTCCCTCTGTAACTGTGCTAG	-0.392 z-score
TTAGGTATCCACTTTCGGTTAGTGCTA	10.2 z-score
TTAGAACTGGGAACTGGATTAGTGCTA	-0.276 z-score
TTAGGACTCGGTCTCGGTTAGTGCTAG	0.213 z-score
GTGAACCGGTCTCTCAGACCGTGCTAG	-0.37 z-score
TTAGGTTCCCGTTTCCTTTAGTGCTAG	0.398 z-score
TTAGGTTTTGGGTATCGGTTAGTGCTA	4.53 z-score
AAATGATTGGTTGAACATGAGTGCTAG	-0.0916 z-score
GACGATCTCACTCTCGAGACGTGCTAG	0.343 z-score
CCTACCGCCCTTACCGCCGCGTGCTAG	-0.564 z-score
GACGGTTTCGGTCTCGGAACGTGCTAG	9.07 z-score
TCAGATGTCAAACTCACACTGTGCTAG	-0.0818 z-score
TGACGGCTCACTCCGTTGGAGTGCTAG	-0.646 z-score
TAAGGTATAAACTTGGGAAAGTGCTAG	0.0216 z-score
TGAGGTATCGGGTTTCGGTTAGTGCTA	7.71 z-score

Sample 3
Target: RNA binding protein fox-1 homolog 2, RRM domain, GST-SBP tag (RBFOX2, Homo sapiens, UniProt O43251-10, residues 100-194)
Technique: RNA Bind-n-Seq
Form: RNA
Medium: in vitro
Concentration: 365 nM
Setting: natural RNA segment, single round, ends assumed
Reference: no-protein control
Direction: higher = stronger binding
Target sequence (chain): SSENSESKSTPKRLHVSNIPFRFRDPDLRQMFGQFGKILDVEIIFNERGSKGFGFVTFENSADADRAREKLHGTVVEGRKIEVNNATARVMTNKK
Sequence	RBNS enrichment (R)
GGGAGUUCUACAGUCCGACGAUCGGUCCUGUGGACAUCUUGCAUUUUGGGCACUGCUAGGGGGUCUGGGCUGCUUGGAAGGAGCCAUGGCCUAGGGUUCAGGGAACUAGACUCUAUCCCAGUUGGGUUCAGACUGGAAUUCUCGGGUGCCAA	2
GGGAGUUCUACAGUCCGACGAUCCCAUAAUUUUCUAGUAAUAGCCACGACCAAUUUAUUAACAGUCAGGGCCUAUCCUUGCCUGUAGUUCUCAGUCACUGGAUGCACAAAAUCACUGUGUAACAUUGGCUCACUGGAAUUCUCGGGUGCCAA	0.282
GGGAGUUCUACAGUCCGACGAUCUGAGCAAGUCAGAAGUUACUCUCAUCAGUCGUUCAUGGUCACAACCUGAGGUACUCUGCUGAGUGGGCAAGGCUGAAGAAGAGGCCUGUGGAAUGCAGCAUUACCUGCUGUGGAAUUCUCGGGUGCCAA	0.349
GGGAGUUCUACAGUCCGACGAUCUGACUGAUAACAGCCAUUGCACUGAAGUGUGAGCUGUCCGUGUGUGACUUUAUAAAUACAGUUUUAAAACAUUUCACAUGCAUGGUAGCACGCAGAGGGUUUUGUUGUGGUGGAAUUCUCGGGUGCCAA	0.656
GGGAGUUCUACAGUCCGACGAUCCGCAUUCUCGUGGUCUAGGCUGGGGGAGGGGUUAUCCACCUGUAGCUCUUUCAAUUGAGGUGGUUCUCAUUCUUGCUUCUCUGUGUCCCCCAUAGGCUAAUACCCCUGGCUGGAAUUCUCGGGUGCCAA	0.555
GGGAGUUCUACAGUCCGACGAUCAGGGAGCUUUUUAAAACACUUCAUUUCAGAUUCAUUAUUGAAAAAGGUCAUCAAAAUAAUUUUUGUGUAUAAGGGAAUUUACCUUGCUUACCUUACUAGUAUGACUAUUAUGGAAUUCUCGGGUGCCAA	0.297
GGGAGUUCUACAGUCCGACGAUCUGGCCUCAGCUGAUCCAUGCUGUCUGACUCCCGGGGAGAGUUAGGAAGAUGCAAGGACCUCUCCUCAAGAGACUGUUGCCUGCCUGAAGCUUCUGUUCAGGCUCAUGCCAUGGAAUUCUCGGGUGCCAA	0.965
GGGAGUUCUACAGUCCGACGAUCCUAUUUUCCCCCCAGACUGGAAUUUCCUCAGCUUUAUCUUGUCUUGCUUUGAAGUUUUGCUCAAUGUUCCUCCCUUCCGACCACUUCCACUUAAAUAAAGUCUUUAAGUAUGGAAUUCUCGGGUGCCAA	5.23
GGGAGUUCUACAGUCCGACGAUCACCACAGCCUGUGUUGACAGAUGUCUGUCUGUCCCUGUGCAAUCCAGUCUGGGCCUCAGACUCAGACUGCUGUAUCUAGCCUACGUUGUCACAAUUUCCUUCUCUGUUAAUGGAAUUCUCGGGUGCCAA	0.244
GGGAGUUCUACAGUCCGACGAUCACCCUUGUUUGAUUUUAGCUGCAGAACGUAUUGGUCCAGCUUGCUCUUCAGUGGGAGAAAACACUUGUAAGUUGCUAAACGAGUCAAUCCCCUCAUUCAGGAAAACUGACUGGAAUUCUCGGGUGCCAA	0.484
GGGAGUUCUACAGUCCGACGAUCACUUUGUAUUUACAAAGCAAGUAGAGGUCUUAAAUUUGCUUCAAGAAGCAGUUGCUCCACUGGAAUUUCUAUAAAGCUGGGUAAAGGGUUAGCAGAAUUACAGAUCUUAAUGGAAUUCUCGGGUGCCAA	0.45
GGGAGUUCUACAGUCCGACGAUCUCAAUUUUCCAGUUUGAUUGAAGUGCAGAGAAAAAUCCCUUAGAUUGCAAAAUAAAAUAGUUGAACUCUCUGUCUUCAUGUGGAAGGUUUAGAGCAGUUGUGAGAUGCUGUGGAAUUCUCGGGUGCCAA	1.2

Other studies, line by line
Sequence	target	assay	test system	setting	scale	measurement	result
GGGAGUUCUACAGUCCGACGAUCGGUCAUUUACCGCAAUCCGAGUGGGUUGCCCCUCUACUUCUCCCAAGAAGAAAUCCCAAACCGAUUCCUUUCAUGUCAGAUUAUACUGUUCUGAUUUUAUUUUCUAUUAUUUUUACAUAUCAACAGAGGAUUGAGCAUCA	RING finger protein unkempt homolog, zinc fingers 1-6, SBP tag (UNK, Homo sapiens, UniProt Q9C0B0, residues 30-357)	RNA Bind-n-Seq	RNA, in vitro	100 nM, RNA with constant flanks, ends assumed	reference: input RNA pool, higher = stronger binding	bound/input enrichment	0.421 ratio
